Measurements from different studies.
Compare with care: the assays were run in different laboratories. ± marks the error that the study gave.
Organism: Plasmodium falciparum

`C[C@@H]1CC[C@H]2[C@@H](C)C(=O)O[C@@H]3O[C@@]4(C)CC[C@@H]1[C@]32OO4` has an IC50 of 73.91 ± 0.01 nM (parasite growth, SYBR Green I; 3D7).
The IC50 of `CC1(C(=O)O)C2CCC(O2)C1(C)C(=O)O` (stereo not drawn) is reported as 7940 nM (Dd2).
For `CN(Cc1ccco1)c1ncnc2ccc(-c3ccoc3)cc12`, the IC50 was 32000 nM (growth, SYBR Green; FVO; 36 h).
`O=C(O)c1cc(-c2ccc(Br)cc2)nc2ccc(Cl)cc12` gave an IC50 of > 100000 nM (parasite growth, inhibitor, SYBR Green I; Cam3.1 R539T (MRA-1240)).
With `N=C(CC(O)c1cc2c(F)cc(F)cc2c2cc(C(F)(F)F)ccc12)Nc1cccc(F)c1` (stereo not drawn) the IC50 was 3.1 nM (parasite growth, HRP2-ELISA; clinical isolates from Gabon; ex vivo, median).
The IC50 of `C[C@]12C=CC(=O)C=C1CC[C@@H]1C2=CC[C@]2(C)[C@@H](C(=O)CN3CCN(c4cc(N5CCCC5)nc(N5CCCC5)n4)CC3)CC[C@@H]12` is reported as 1260 nM (D10).
`CC1(C)N=C(N)N=C(N)N1c1ccc(Cl)cc1` has an IC50 of 5910 ± 1620 nM (growth, [3H]-hypoxanthine uptake; FCR3; 48 h).
For `OC(CCCN1CCCCC1)(c1ccccc1)c1ccccc1`, the IC50 was > 10000 nM (parasite proliferation, SYBR Green; 3D7; erythrocytic stage).
The IC50 of `OCCN1CCN(CC/C=C2/c3ccccc3Sc3ccc(C(F)(F)F)cc32)CC1` is reported as 10000 nM (Dd2).
For `C[C@@H](c1cc(Cl)cc(Cl)c1)N(C)c1ncc2c(N)nc(N)nc2n1`, the IC50 was 7810 nM (parasite growth, inhibitor, SYBR Green I; Cam3.1 R539T (MRA-1240)).
With `Cl.O[C@]12C=C(c3nccc4c3[nH]c3ccccc34)[C@@H]3CCN(CCCC/C=C\CC1)C[C@@]31C[C@@H]3/C=C\CCCCN3[C@H]12` the IC50 was 7.3 ± 1.55 ng/mL (W2, chloroquine-resistant; 72 h).
`O=C1C(O)=C([C@H]2CC[C@H](c3ccc(Cl)cc3)CC2)C(=O)c2ccccc21` has an IC50 of 10100 ± 600 nM (growth; C2B; 72 h).
`Clc1cccc(C(c2ccc3[nH]cnc3c2)n2ccnc2)c1` (stereo not drawn) has an IC50 of 29000 nM (growth, SYBR Green; FVO; 36 h).
For `COc1cc2c(cc1O)[C@@H](Cc1ccc(O)cc1)[N+](C)(C)CC2`, the IC50 was 59600 nM (parasite growth, inhibitor, SYBR Green I; Cam3.1 R539T (MRA-1240)).
`COC1=CC(c2ccc[nH]2)=N/C1=C\c1[nH]c(Cc2ccc(OC(F)(F)F)cc2)cc1Cc1ccc(OC(F)(F)F)cc1` gave an IC50 of 34.8 nM (parasite growth; DR1, artemisinin-resistant; 72 h, synchronized rings).
With `CN(C)CC[C@@H](c1ccc(Cl)cc1)c1ccccn1` the IC50 was 1260 nM (W2).
`N=C(CC(O)c1cc2c(F)cc(F)cc2c2cc(C(F)(F)F)ccc12)Nc1ccc(F)c(F)c1` (stereo not drawn) gave an IC50 of 15 nM.
For `COc1ccc(CCN(C)CCCC(C#N)(c2ccc(OC)c(OC)c2)C(C)C)cc1OC` (stereo not drawn), the IC50 was 1580 nM (3D7).
For `Cc1cc(NCCc2ccccc2)nc(N=C(N)Nc2ccc(Cl)cc2)n1`, the IC50 was 1110 nM (parasite growth, inhibitor, SYBR Green I; Cam3.1 R539T (MRA-1240)).
With `COCC(=O)O[C@]1(CCN(C)CCCc2nc3ccccc3[nH]2)CCc2cc(F)ccc2[C@@H]1C(C)C` the IC50 was 398 nM (GB4).
With `O[C@@H](c1cc(C(F)(F)F)nc2c(C(F)(F)F)cccc12)[C@H]1CCCCN1` the IC50 was 10.5 nM (parasite growth, inhibitor, SYBR Green I; Cam3.1 R539T (MRA-1240)).
The IC50 of `C[C@@H]1CC[C@H]2[C@@H](C)C(=O)O[C@@H]3O[C@@]4(C)CC[C@@H]1[C@]32OO4` is reported as 5.9 ± 0.9 nM (parasite growth; Cam WT, compound-sensitive; 72 h).
With `CN1CCC(=C2c3ccccc3CC(=O)c3sccc32)CC1` the IC50 was 10000 nM (7G8).
For `Cc1ccc2c(c1C)NC(=O)[C@]21NN=C(c2ccccc2)S1`, the IC50 was 1190 nM (parasite growth, inhibitor, SYBR Green I; Cam3.1 R539T (MRA-1240)).

A few entries again:
For `CN(Cc1ccco1)c1ncnc2ccc(-c3ccoc3)cc12`, the IC50 was 32000 nM (growth, SYBR Green; FVO; 36 h).
`O=C(O)c1cc(-c2ccc(Br)cc2)nc2ccc(Cl)cc12` gave an IC50 of > 100000 nM (parasite growth, inhibitor, SYBR Green I; Cam3.1 R539T (MRA-1240)).
With `N=C(CC(O)c1cc2c(F)cc(F)cc2c2cc(C(F)(F)F)ccc12)Nc1cccc(F)c1` (stereo not drawn) the IC50 was 3.1 nM (parasite growth, HRP2-ELISA; clinical isolates from Gabon; ex vivo, median).
